Assay results of several laboratories.
Numbered parts are unrelated; each lists some results of a single study. Changes are numbered by the printed parent chain.

Series 1
Target: CCNB2, cyclin fold, Cln2 fusion (human)
Technique: yeast growth competition, sequencing
Sample: yeast
Notes: weak parent motif
Reference: not given
Reading: higher = stronger binding
Starting sequence: MASTL docking peptide (human); PMIAKNLMCELDE
| Substitution | normalised enrichment score |
| --- | --- |
| PMIAKNKMCELDE [L7K] | 0.46 |
| PMNAKNLMCELDE [I3N] | -0.0621 |
| PMIAKNLWCELDE [M8W] | 0.491 |
| PMIAQNLMCELDE [K5Q] | -0.129 |
| PMIAKNLMCELPE [D12P] | 0.317 |
| PMIAKNLMCPLDE [E10P] | 0.0932 |
| PMIAKNLMCELIE [D12I] | 0.265 |
| PMIAKPLMCELDE [N6P] | -0.318 |
| PMIAKCLMCELDE [N6C] | 0.201 |
| PMILKNLMCELDE [A4L] | -0.422 |

Series 2
Target: Histone acetyltransferase KAT6A, winged helix 1, GST fusion (KAT6A, Homo sapiens, UniProt Q92794, residues 1-85)
Technique: protein binding microarray
Molecule type: double-stranded DNA, one strand shown
Sample: in vitro
Concentration: not given
Notes: 8-mer, flanks averaged, mean of 2 arrays, mostly near background
Reference: not given
Reading: higher = stronger binding
Target sequence (chain): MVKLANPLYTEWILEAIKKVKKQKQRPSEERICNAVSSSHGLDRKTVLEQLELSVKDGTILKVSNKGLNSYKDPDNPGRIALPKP
| Oligonucleotide | E-score |
| --- | --- |
| GGTACGCA | 0.107 |
| GCCGTATA | 0.317 |
| TAATGTGA | -0.082 |
| CTCTGCGC | 0.259 |
| AGAGGTTC | 0.0732 |
| CAGCACAA | -0.148 |
| CGCGAGCG | 0.411 |
| AACAGGAC | -0.194 |
| CACCAACC | -0.181 |

Series 3
Target: Sal-like protein 4, full length isoform A (SALL4, Homo sapiens, UniProt Q9UJQ4, residues 1-1053)
UniProt Q9UJQ4, sequence (whole entry, looked up): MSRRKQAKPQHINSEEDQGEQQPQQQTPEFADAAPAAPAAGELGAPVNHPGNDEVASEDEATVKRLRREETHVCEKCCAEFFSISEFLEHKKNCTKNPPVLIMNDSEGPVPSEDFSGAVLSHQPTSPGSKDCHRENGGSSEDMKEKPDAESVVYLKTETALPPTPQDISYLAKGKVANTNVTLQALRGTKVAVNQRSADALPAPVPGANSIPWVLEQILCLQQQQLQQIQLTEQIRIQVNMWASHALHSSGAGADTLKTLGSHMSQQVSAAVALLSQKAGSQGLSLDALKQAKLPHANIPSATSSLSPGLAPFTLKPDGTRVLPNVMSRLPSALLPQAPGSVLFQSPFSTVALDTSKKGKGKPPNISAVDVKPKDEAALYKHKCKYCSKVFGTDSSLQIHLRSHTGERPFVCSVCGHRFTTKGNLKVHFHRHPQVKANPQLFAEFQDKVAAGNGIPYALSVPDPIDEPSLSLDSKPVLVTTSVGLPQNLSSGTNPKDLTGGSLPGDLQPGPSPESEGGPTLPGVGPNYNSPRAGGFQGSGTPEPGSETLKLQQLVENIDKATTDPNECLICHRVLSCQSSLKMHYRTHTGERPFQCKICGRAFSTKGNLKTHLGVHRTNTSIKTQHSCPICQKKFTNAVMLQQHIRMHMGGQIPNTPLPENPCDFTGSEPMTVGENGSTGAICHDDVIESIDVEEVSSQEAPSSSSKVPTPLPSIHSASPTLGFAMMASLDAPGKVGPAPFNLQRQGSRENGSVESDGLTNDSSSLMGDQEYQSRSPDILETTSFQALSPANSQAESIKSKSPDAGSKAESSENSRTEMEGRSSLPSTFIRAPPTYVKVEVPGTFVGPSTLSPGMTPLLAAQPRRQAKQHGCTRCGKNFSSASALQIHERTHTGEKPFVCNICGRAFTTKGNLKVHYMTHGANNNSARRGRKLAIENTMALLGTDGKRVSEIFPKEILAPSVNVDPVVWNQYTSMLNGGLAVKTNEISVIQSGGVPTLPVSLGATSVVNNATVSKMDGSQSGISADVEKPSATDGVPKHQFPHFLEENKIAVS
Technique: universal PBM
Molecule type: double-stranded DNA, one strand shown
Sample: in vitro
Concentration: 600 nM
Notes: 8-mer, flanks averaged, mean of replicates
Reading: higher = stronger binding
| Oligonucleotide | E-score |
| --- | --- |
| CAAAATCC | 0.0247 |
| AACCTCTT | 0.174 |
| ATGGATTG | 0.142 |
| ACAGCCCG | -0.271 |
| CATCGCCC | -0.327 |
| CACTTTAG | 0.0127 |
| AAACTGGA | 0.0636 |
| GAGAGTGC | -0.0176 |

Further values, each from its own experiment
| Substance | target | assay | system | conditions | how to read | quantity | value |
| --- | --- | --- | --- | --- | --- | --- | --- |
| PhoQ, residues 284 288 289 292 302 303 NLGVHL | PhoP, residues 12 14 15 18 19 SYFRT (Escherichia coli, UniProt P23836) | Sort-seq, item: YFP reporter | E. coli | PhoQ-PhoP variant library, together with: 10 µM Mg2+ | reference: high Mg2+ state, higher = stronger signaling | fold induction | 8.04 |
